# Results collected from several papers.
# Protocols differ between the studies behind these lines. ± gives the spread as reported.
# CYP1A2: Cytochrome P450 1A2 (CYP1A2, Homo sapiens, UniProt P05177)
# UniProt P05177, sequence (whole entry, looked up): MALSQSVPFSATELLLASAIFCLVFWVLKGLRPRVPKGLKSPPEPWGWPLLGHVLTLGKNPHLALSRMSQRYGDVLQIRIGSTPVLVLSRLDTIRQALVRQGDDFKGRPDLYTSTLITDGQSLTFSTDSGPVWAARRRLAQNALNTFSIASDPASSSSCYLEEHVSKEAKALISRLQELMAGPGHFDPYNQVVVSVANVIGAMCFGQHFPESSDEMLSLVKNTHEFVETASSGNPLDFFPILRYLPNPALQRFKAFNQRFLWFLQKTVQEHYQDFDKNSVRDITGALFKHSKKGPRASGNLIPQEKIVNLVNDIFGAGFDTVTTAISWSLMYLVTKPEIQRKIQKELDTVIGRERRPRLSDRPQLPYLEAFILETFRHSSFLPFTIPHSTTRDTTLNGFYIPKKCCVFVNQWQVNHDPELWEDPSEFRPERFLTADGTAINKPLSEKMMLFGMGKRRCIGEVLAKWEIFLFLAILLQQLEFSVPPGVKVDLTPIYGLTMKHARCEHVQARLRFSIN
# UniProt P10635, sequence (whole entry, looked up): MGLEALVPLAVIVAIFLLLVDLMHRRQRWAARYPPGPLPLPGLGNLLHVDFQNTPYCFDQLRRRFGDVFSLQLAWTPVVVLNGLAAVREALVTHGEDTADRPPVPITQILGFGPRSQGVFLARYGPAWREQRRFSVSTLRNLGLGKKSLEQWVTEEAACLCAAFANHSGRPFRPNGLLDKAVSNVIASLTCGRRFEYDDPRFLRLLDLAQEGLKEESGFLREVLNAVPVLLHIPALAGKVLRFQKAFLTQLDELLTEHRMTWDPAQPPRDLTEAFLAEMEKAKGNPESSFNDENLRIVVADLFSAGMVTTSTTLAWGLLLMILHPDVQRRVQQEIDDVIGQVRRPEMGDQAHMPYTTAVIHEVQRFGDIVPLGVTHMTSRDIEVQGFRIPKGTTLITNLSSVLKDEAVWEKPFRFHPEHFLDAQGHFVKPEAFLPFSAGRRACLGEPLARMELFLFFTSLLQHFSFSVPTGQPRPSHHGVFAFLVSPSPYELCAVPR
Compound,target or system,assay,test system,conditions,quantity,result
CC(C)N(CC(O)COc1cccc2ccccc12)N=O (stereo not drawn),"Salmonella typhimurium, Escherichia coli",preincubation Ames test,,"concentration not given, with and without S9",mutagenicity,positive
C[C@H]1CNCCc2ccc(Cl)cc21,,,"Sprague-Dawley rat, male, plasma","subcutaneous, 0.5 mg/kg, 60 min",plasma concentration,10.4 ± 0.26 ng/mL
CNC(=O)O/N=C/C(C)(C)S(C)(=O)=O,CYP1A2,inhibitor,human liver microsomes,"10 µM, pH 7.4, together with: phenacetin",inhibition,0.21%
C=C1C[C@@H]2[C@H](CC[C@]3(C)C(=O)CC[C@@H]23)[C@@]2(C)C=CC(=O)C=C12,,LC-MS/MS,"postmenopausal breast cancer women, plasma","oral, 25 mg/day, 2 h, CYP1A1*2 homozygous variant",median plasma concentration,12.3 ng/mL
O=C(O)CCCC1C2CCCN3CCCC(CN1S(=O)(=O)c1ccc(Cl)cc1)C23 (stereo not drawn),HEK293T,,,,CC50,200 µM
COc1ccsc1CNCC[C@@]1(c2ccccn2)CCOC2(CCCC2)C1,,,"healthy human, normal hepatic function, plasma","intravenous, 1 mg single dose, arithmetic mean",half-life,2.1 ± 0.23 h
CN(C[C@H](O)c1cccc(O)c1)N=O,"Salmonella typhimurium, Escherichia coli",preincubation Ames test,,"concentration not given, with and without S9",mutagenicity,negative
CN[C@@](C)(C[18F])C(=O)O,A549 tumour model,,"host not given, pancreas","30 min, tumour-bearing",tracer uptake,50 %ID/g
CN(CCOC(c1ccccc1)c1ccccc1)N=O,"Salmonella typhimurium, Escherichia coli",preincubation Ames test,,"concentration not given, with and without S9",mutagenicity,positive
CNC(=O)O/N=C/C(C)(C)SC,"Cytochrome P450 2D6 (CYP2D6, Homo sapiens, UniProt P10635)",inhibitor,human liver microsomes,"2 µM, pH 7.4, together with: dextromethorphan",inhibition,2.45%
CN1CCN(N=O)CC1,"Salmonella typhimurium, Escherichia coli",preincubation Ames test,,"concentration not given, with and without S9",mutagenicity,positive
Cc1ncc2n1-c1ccc(Cl)cc1C(c1ccccc1F)=NC2,,,"healthy men, plasma","oral, 7.5 mg, day 26, geometric mean, together with: 14 days post amenamevir",AUC(0-inf),122 ng·h/mL
CCCCN(CCCC)N=O,"Salmonella typhimurium, Escherichia coli",preincubation Ames test,,"concentration not given, with and without S9",mutagenicity,positive
CCCCCCCCCCC(=O)O[C@H]1CC[C@H]2[C@@H]3CCC4=CC(=O)CC[C@]4(C)[C@H]3CC[C@]12C,,,"blood of hypogonadal men, plain tubes",1000 ng/mL,serum testosterone,578 ± 66.6 ng/dL
CNC(=O)O/N=C/C(C)(C)[S+](C)[O-] (stereo not drawn),CYP1A2,inhibitor,human liver microsomes,"10 µM, pH 7.4, together with: phenacetin",inhibition,< 0%
CC(C)[C@H](NC(=O)[C@H](CC(=O)O)NC(=O)[C@H](Cc1ccc(O)cc1)NC(=O)[C@@H]1CCCN1C(=O)[C@H](Cc1ccc(O)cc1)NC(=O)[C@H](CCCNC(=N)N)NC(=O)CNC(=O)[C@H](CCCNC(=N)N)NC(=O)CNC(=O)[C@H](CCCNC(=N)N)NC(=O)CNC(=O)[C@H](CCCNC(=N)N)NC(=O)CNC(=O)[C@H](CCCNC(=N)N)NC(=O)CNC(=O)[C@H](CCCNC(=N)N)NC(=O)CNC(=O)[C@H](CCCNC(=N)N)NC(=O)CNC(=O)[C@H](CCCNC(=N)N)NC(=O)CNC(=O)[C@H](CCCNC(=N)N)NC(=O)CNC(=O)[C@H](CCCNC(=N)N)NC(=O)CNC(=O)[C@H](CCCNC(=N)N)NC(=O)CNC(=O)[C@H](CCCNC(=N)N)NC(=O)CNC(=O)[C@H](CCCNC(=N)N)NC(=O)CNC(=O)[C@H](CCCNC(=N)N)NC(=O)CNC(=O)[C@H](CCCNC(=N)N)NC(=O)CNC(=O)[C@H](CCCNC(=N)N)NC(=O)CNC(=O)[C@H](CCCNC(=N)N)NC(=O)CNC(=O)[C@H](CCCNC(=N)N)NC(=O)CNC(=O)[C@H](CCCNC(=N)N)NC(=O)CNC(=O)[C@H](CCCNC(=N)N)NC(=O)CN)C(=O)N1CCC[C@H]1C(=O)N[C@@H](CC(=O)O)C(=O)N[C@@H](Cc1ccc(O)cc1)C(=O)N[C@@H](C)C(=O)O,U2OS,dot blot anti-HA,,,intracellular half-life,0.333 to 0.5 h
COc1ccc2c(c1)[C@]13CCCC[C@@H]1[C@H](C2)N(C)CC3,,,"Wistar rat, both sexes, plasma","oral, 5 mg/kg, 2 h after pretreatment, together with: single quinidine 2.5 mg/kg",t1/2,2.55 ± 0.89 h
CN(N=O)c1ccccc1,"Salmonella typhimurium, Escherichia coli",preincubation Ames test,,"concentration not given, with and without S9",mutagenicity,positive

# A few entries again:
Compound,target or system,assay,test system,conditions,quantity,result
CN(C[C@H](O)c1cccc(O)c1)N=O,"Salmonella typhimurium, Escherichia coli",preincubation Ames test,,"concentration not given, with and without S9",mutagenicity,negative
